Measurements collected from several papers.
Several values in a cell are separate wells, animals, samples, runs or records. ± gives the spread as reported.

CONC(=O)/C=C/c1cccc(S(=O)(=O)Nc2ccccc2)c1  Cmax metabolic ratio (human, mild liver dysfunction, plasma; intravenous, 400 mg/m^2 belinostat, cycle 1 day -7, geometric mean; relative to: metabolite over belinostat): 0.112
C/C=C/CNC(=N)NCCCCCCCCN1CCCc2ccccc2COc2ccccc2CNC(=N)NC1=O  Papp (PAMPA; 500 µM, 5 h, pH 7.4): < 0.01 ×10⁻⁶ cm/s
CCCCCCCCCCCCCCCC(=O)N[C@@H](CCCCN)C(=O)N[C@@H](CCCCN)C(=O)N[C@@H](CO)C(=O)N[C@@H](CCCNC(=N)N)C(=O)N[C@@H](C)C(=O)N[C@@H](CC(C)C)C(=O)N[C@@H](Cc1ccccc1)C(N)=O  prothrombin time (cynomolgus monkey, female; 3 mg/kg, day 1): 11.8 ± 0.5 s
CC(C)[C@H](NC(=O)[C@@H]1CCCN1C(=O)[C@H](CCCNC(=N)N)NC(=O)[C@H](CS)NC(=O)[C@H](Cc1c[nH]c2ccccc12)NC(=O)[C@H](CCCNC(=N)N)NC(=O)[C@@H](Cc1ccccc1)NC(=O)[C@H](Cc1c[nH]cn1)NC(=O)[C@H](CCC(=O)O)NC(=O)[C@H](CS)NC(=O)[C@H](CS)NC(=O)[C@@H]1CC(=O)N[C@@H](CCCNC(=N)N)C(=O)NCC(=O)N[C@@H](CC(=O)O)C(=O)N[C@H](Cc2ccc(O)cc2)C(=O)N1)C(N)=O [technetium-99m labelled]  tissue uptake (C57 mouse, female, B16/F1 melanoma, lung; intravenous, 0.037 MBq, 4 h): 0.63 ± 0.29 %ID/g
CN1CCC[C@]1(C)/C=C/S(=O)(=O)NC(=O)Nc1c2c(cc3c1CCC3)CCC2  accumulation ratio AUC(0-24) (human, plasma; oral, 100 mg twice daily, 14 days, multiple ascending dose; relative to: day 14 over day 1): 1.3
CC[C@@H](C)[C@H]1NC(=O)[C@@H]([C@H](C)O)NC(=O)[C@@H](Cc2c[nH]cn2)NC(=O)CNC(=O)[C@@H](CCCNC(=N)N)NC(=O)CNC(=O)[C@@H](Cc2ccccc2)NC1=O  retina-choroid concentration (New Zealand rabbit, retina-choroid; eye drop, dose not given, 24 h): ~464 nM
O=C([O-])CN1CCN(CC(=O)[O-])CCN(CC(=O)NCC2CCC(C(=O)NC(Cc3ccc4ccccc4c3)C(=O)NCCCCC(NC(=O)NC(CCC(=O)O)C(=O)O)C(=O)O)CC2)CCN(CC(=O)[O-])CC1.[44Sc+3] (stereo not drawn)  organ absorbed dose (PET/CT dosimetry, OLINDA/EXM; human, salivary glands): 0.097 mSv/MBq and 0.052 mSv/MBq and 0.035 mSv/MBq
CC(=O)N[C@@H](CC(N)=O)C(=O)NCC(=O)N[C@@H](C)C(=O)N[C@@H](C)C(N)=O  half-life of Asn form (1H NMR; sodium phosphate buffer 50 mM; pH 7.4, 37 °C): 25.7 h
Cc1cc(O)cc(O)c1C(=O)c1c2c3c(c(O)cc(C)c3oc1=O)C(=O)c1c(O)cc(O)cc1-2  efflux ratio (Caco-2 monolayer; 200 µM, 3 h, pH 7.4; relative to: AP to BL over BL to AP): 37.7
CC[C@H](C)[C@@H]1NC(=O)[C@H](Cc2ccccc2)NC(=O)[C@@H](NC(=O)[C@H](CCCNC(=N)N)NC(=O)[C@H](Cc2ccccc2)NC(=O)[C@H](Cc2ccccc2)NC(=O)[C@H](CCCCN)NC(=O)[C@H](CO)NC(=O)[C@H](CC(C)C)NC(=O)[C@H](CCCNC(=N)N)NC(=O)[C@H](CCSC)NC(=O)[C@H](C)N)CCCCNC(=O)NCCCC[C@@H](C(=O)N[C@@H](CCCNC(=N)N)C(=O)N[C@@H](CCCCN)C(=O)N[C@@H](CCCCN)C(=O)O)NC(=O)[C@H](CC(C)C)NC1=O  helicity (circular dichroism; 20% TFE in PBS; 200 µM, pH 7.4, 25 °C): 12.3%
O=C(CCc1ccc(CNC(C(=O)O)C2CCCCC2)cn1)NO (stereo not drawn)  accumulation ratio AUC (healthy male humans; oral, 40 mg once daily, 7 days, median; relative to: day 7 over day 1): 1.02
CC(NC(=O)OC1OC(C(=O)O)C(O)C(O)C1O)c1cc(Cl)ccc1Cn1c(=S)[nH]c(=O)c2[nH]ccc21 (stereo not drawn)  exposure ratio (dog, both sexes, plasma; oral, 100 mg/kg/day; relative to: dog over human 15 mg): 0.7
N#Cc1cnc2cc(OCC3CCNCC3)c(F)cc2c1Nc1cc(F)c(OCc2cccc(Cl)n2)cc1Cl  MRT (female CD-1 mouse, plasma; intravenous, 5 mg/kg): 4 h
CC(C)(O)c1ncc([S@](N)(=O)=NC(=O)Nc2c3c(cc4c2CCC4)CCC3)s1  subjects with gastrointestinal disorders (healthy human subjects, all study parts; oral, dose not given): 28%
[11CH3]c1ccc2nc(C3CCC3)n(-c3ccc4[nH]ncc4c3)c2n1  absorbed radiation dose (human female, liver): 14.7 µSv/MBq
N=C(N)NCCC[C@H](NC(=O)[C@H](CCCNC(=N)N)NC(=O)[C@H](CCCNC(=N)N)NC(=O)[C@H](CCCNC(=N)N)NC(=O)[C@H](CCCNC(=N)N)NC(=O)[C@H](CCCNC(=N)N)NC(=O)[C@H](CCCNC(=N)N)NC(=O)[C@H](CCCNC(=N)N)NC(=O)[C@H](CCCNC(=N)N)NC(=O)[C@H](CCCNC(=N)N)NC(=O)[C@H](CCCNC(=N)N)NC(=O)[C@H](CCCNC(=N)N)NC(=O)[C@H](CCCNC(=N)N)NC(=O)[C@H](CCCNC(=N)N)NC(=O)[C@H](CCCNC(=N)N)NC(=O)[C@H](CCCNC(=N)N)NC(=O)[C@H](CCCNC(=N)N)NC(=O)[C@H](CCCNC(=N)N)NC(=O)[C@H](CCCNC(=N)N)NC(=O)[C@H](CCCNC(=N)N)NC(=O)c1ccc2c(c1)C(=O)OC21c2ccc(O)cc2Oc2cc(O)ccc21)C(=O)O  cartilage uptake ratio (bovine, healthy cartilage explants; 30 µM, 24 h, 37 °C, 5-FAM labelled; relative to: tissue over bath concentration): ~181
CC[C@H](C)[C@@H]1NC(=O)[C@H](Cc2ccccc2)NC(=O)[C@H](CC(=O)O)NC(=O)[C@H](CCCNC(=N)N)NC(=O)[C@H](Cc2ccccc2)NC(=O)[C@H](Cc2ccccc2)NC(=O)[C@@H](NC(=O)[C@H](CO)NC(=O)[C@H](CC(C)C)NC(=O)[C@H](CCCNC(=N)N)NC(=O)[C@H](CCSC)NC(=O)[C@H](C)N)CCCNC(=O)NCCCC[C@@H](C(=O)N[C@@H](CCC(N)=O)C(=O)N[C@@H](CCCNC(=N)N)C(=O)N[C@@H](CCCCN)C(=O)N[C@@H](CCCCN)C(=O)O)NC1=O  helicity (circular dichroism; 20% TFE in PBS; 200 µM, pH 7.4, 25 °C): 4.4%
N=C(N)NCCC[C@@H]1NC(=O)[C@H](Cc2c[nH]c3ccccc23)NC(=O)[C@@H](CC2CCCCC2)NC(=O)[C@@H]2CCCN2C(=O)[C@@H](NC(=O)CCc2ccccc2)CCCNC1=O  beta elimination rate constant (C57BL/6J mouse, spinal cord; intraperitoneal, 1 mg/kg, single dose, two-compartment model): 0.24 h⁻¹
CC(C)(Sc1ccncc1-c1ccc(C#N)c2ccccc12)C(=O)OC1OC(C(=O)O)C(O)C(O)C1O (stereo not drawn)  Cmax ratio (adult men, plasma; oral, 15 mg verinurad, moderate renal impairment; relative to: impaired over normal renal function): 212%
Oc1ccc2ccccc2c1/N=N/c1ccc(/N=N/c2ccccc2)cc1  measured concentration (extracted rat blood QC samples; 0.2 µg/L, 4 h, room temperature, short-term stability): 0.203 µg/L
CC[C@H](C)[C@H](NC(=O)[C@H](Cc1ccccc1)NC(=O)[C@H](CCC(=O)O)NC(=O)[C@H](CCCCN)NC(=O)[C@H](C)NC(=O)[C@H](C)NC(=O)[C@H](CCC(N)=O)NC(=O)CNC(=O)[C@H](CCC(=O)O)NC(=O)[C@H](CC(C)C)NC(=O)[C@H](Cc1ccc(O)cc1)NC(=O)[C@H](CO)NC(=O)[C@H](CO)NC(=O)[C@@H](NC(=O)[C@H](CC(=O)O)NC(=O)[C@H](CO)NC(=O)[C@@H](NC(=O)[C@H](Cc1ccccc1)NC(=O)[C@@H](NC(=O)CNC(=O)[C@H](CCC(=O)O)NC(=O)[C@H](C)NC(=O)[C@@H](N)Cc1c[nH]cn1)[C@@H](C)O)[C@@H](C)O)C(C)C)C(=O)N[C@@H](C)C(=O)N[C@@H](Cc1c[nH]c2ccccc12)C(=O)N[C@@H](CC(C)C)C(=O)N[C@H](C(=O)N[C@@H](CCCCN)C(=O)NCC(=O)N[C@@H](CCCNC(=N)N)C(N)=O)C(C)C  metabolic clearance rate (human type 2 diabetes, plasma; intravenous infusion, 1.2 pmol/kg/min, 60 to 360 min, with: GIP 4 pmol/kg/min): 10 ± 1 mL/min/kg
CN(C)CCCn1c2ccc([N+](=O)[O-])cc2c(=O)n1Cc1ccccc1  CC50 (resazurin; peritoneal macrophages, BALB/c mice; 48 h, 10% FBS): 5 ± 3 µM
O=C(NCCCN(CCCCN(CCCNC(=O)c1cccc(=O)n1[O-])C(=O)c1cccc(=O)n1[O-])C(=O)c1cccc(=O)n1[O-])c1cccc(=O)n1[O-].[89Zr+4]  intact complex (radio-TLC; PBS; 5 d, pH 7.4, 37 °C, with: Gd^3+ 10-fold excess): 96.5 ± 2.9%
CN[C@@H]1[C@H](O)[C@H](NC)[C@H]2O[C@]3(O)[C@H](O[C@@H]2[C@H]1O)O[C@H](C)C[C@@]3(O)CNCc1ccc(F)cc1  volume of distribution (rat; intravenous, 10 mg/kg): 0.64 L/kg
C[Si](C)(C)C[C@@H](CN)CC(=O)O  concentration (male Sprague-Dawley rat, brain; oral, 30 mg/kg, 1 h, single dose): 1400 nM
CCCC1OC2CC3C4CCC5=CC(=O)C=CC5(C)C4C(O)CC3(C)C2(C(=O)COC(=O)CN(CC)CC)O1 (stereo not drawn)  hydrolysed conjugate (human plasma; 200 µg/mL, 12 h): 85.7%
Cn1c(=O)n(Cc2ccc(C(=O)O)cc2)c(=O)c2cc(C#CCc3ccccc3)ccc21  Papp (PAMPA): 71 ×10⁻⁶ cm/s
CCc1nc(N)nc(N)c1C#C[C@H](C)c1cc(-c2cc(C)nc(C)c2)ccc1Cl  oral bioavailability (mouse, plasma; oral, 16 mg/kg): 18.6%
Cn1c(=O)oc2ccc(-c3ccc(CC(C#N)NC(=O)C4CNCCCO4)c(F)c3)cc21 (stereo not drawn)  lymphadenopathy incidence (human; oral, 40 mg once daily, TEAE, multiple ascending dose): 0%
Cc1ccc(OCC(=O)N(Cc2cccs2)c2ccn[nH]2)cc1  Cmax (female Sprague-Dawley rat, plasma; intravenous, 1 mg/kg, single dose): 1330 ng/mL
CCCC(CCC)NC(=O)c1ccc(OC)c(O)c1  remaining parent compound (rat liver microsomes; 1.0 µM, 0 min, pH 7.4): 100%
O=C(O)C1CN(Cc2ccc(-c3noc(-c4ccc(OCC[18F])c(C(F)(F)F)c4)n3)cc2)C1  tissue uptake (male Sprague-Dawley rat, kidney; intravenous, 5 min): 2.03 ± 0.25 %ID/g
CC(C)c1cnc(-c2cc(Cl)ccc2F)cc1Nc1ccncc1C(=O)NC(CO)CO  patients with ALT increase (patients, phase I monotherapy; oral, dose not given, grade 3): 9.5%
COc1ccc(/C=C/C2=[N+]3C(=C(CO)c4c(C)cc(/C=C/c5ccc(OC)cc5)n4[B-]3(C)C)C(C)=C2)cc1  photostability (DMSO/methanol 1:1; 1 h, with: 645 nm light, 9.00 J/cm2): unstable
CC(C)[C@H](NC(=O)CNC(=O)[C@H](CCC(N)=O)NC(=O)[C@H](C)N)C(=O)O  volume of distribution (human male, plasma; intravenous infusion, 10 mg/kg single, 15 min infusion, geometric mean): 3 L/kg
C[C@H](NC(=O)COC(=O)[C@H](C)NC(=O)CO)C(=O)O  depolymerization half-life (water; pH 7, 37 °C): 7.2 min
